{"data": "Measurements collected from several papers", "note": "Parts stem from different laboratories: compare values within a part only.", "chain of UniProt Q9UIK4 (whole entry, looked up)": "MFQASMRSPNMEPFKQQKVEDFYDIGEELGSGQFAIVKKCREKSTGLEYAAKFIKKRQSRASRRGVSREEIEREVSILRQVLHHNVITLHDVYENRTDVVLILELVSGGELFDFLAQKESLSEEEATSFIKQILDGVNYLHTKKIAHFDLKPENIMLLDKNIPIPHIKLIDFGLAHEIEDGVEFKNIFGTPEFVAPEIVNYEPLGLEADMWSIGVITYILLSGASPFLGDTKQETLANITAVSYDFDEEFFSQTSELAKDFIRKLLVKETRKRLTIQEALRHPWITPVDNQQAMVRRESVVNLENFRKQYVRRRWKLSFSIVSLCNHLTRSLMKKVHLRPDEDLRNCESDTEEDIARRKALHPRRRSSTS", "chain of UniProt P53355 (whole entry, looked up)": "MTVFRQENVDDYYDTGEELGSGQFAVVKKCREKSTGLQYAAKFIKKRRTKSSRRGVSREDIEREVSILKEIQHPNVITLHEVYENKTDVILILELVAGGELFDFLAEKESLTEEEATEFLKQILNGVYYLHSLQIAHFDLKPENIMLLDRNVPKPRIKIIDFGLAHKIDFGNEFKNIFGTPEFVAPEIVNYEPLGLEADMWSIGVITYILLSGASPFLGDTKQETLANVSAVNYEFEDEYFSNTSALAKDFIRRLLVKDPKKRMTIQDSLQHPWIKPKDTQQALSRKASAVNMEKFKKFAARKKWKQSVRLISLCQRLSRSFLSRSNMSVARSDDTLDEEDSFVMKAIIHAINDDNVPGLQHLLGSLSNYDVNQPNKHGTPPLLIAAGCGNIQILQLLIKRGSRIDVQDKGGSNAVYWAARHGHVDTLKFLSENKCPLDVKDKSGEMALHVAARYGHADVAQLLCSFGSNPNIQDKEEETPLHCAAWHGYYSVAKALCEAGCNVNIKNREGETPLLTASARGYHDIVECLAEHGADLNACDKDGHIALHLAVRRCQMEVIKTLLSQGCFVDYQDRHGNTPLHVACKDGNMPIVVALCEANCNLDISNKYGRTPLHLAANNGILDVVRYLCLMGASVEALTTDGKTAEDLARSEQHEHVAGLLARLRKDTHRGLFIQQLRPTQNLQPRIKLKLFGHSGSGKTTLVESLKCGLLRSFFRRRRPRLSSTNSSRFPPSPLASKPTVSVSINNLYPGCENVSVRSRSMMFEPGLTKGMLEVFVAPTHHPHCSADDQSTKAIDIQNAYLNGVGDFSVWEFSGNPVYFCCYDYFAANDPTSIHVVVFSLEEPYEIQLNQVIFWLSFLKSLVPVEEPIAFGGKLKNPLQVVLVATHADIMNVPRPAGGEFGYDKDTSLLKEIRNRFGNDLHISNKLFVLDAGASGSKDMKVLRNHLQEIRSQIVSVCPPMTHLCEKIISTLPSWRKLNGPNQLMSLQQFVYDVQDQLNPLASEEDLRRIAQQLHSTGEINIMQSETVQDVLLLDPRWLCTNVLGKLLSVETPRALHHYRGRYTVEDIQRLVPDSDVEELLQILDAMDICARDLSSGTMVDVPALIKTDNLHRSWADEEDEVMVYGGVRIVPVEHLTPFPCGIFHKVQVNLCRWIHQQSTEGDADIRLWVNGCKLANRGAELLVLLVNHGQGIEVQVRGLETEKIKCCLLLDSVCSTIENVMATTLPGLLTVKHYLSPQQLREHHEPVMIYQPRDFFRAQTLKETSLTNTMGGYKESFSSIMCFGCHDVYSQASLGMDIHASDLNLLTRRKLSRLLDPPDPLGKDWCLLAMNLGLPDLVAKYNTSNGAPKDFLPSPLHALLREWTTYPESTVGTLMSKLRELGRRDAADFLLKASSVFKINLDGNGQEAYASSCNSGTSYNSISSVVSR", "chain of UniProt Q13882 (whole entry, looked up)": "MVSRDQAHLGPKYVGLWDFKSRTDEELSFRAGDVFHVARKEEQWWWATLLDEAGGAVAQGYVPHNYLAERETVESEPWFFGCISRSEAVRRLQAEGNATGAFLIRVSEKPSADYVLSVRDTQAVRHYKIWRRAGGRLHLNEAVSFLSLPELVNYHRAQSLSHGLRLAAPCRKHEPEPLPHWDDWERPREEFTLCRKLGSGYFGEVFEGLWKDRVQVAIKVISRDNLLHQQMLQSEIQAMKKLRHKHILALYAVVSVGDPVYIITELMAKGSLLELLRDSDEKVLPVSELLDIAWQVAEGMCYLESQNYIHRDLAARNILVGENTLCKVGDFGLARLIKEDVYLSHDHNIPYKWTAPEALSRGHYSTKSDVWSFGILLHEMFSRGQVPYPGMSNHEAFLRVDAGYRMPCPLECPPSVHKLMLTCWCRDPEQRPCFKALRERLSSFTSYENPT", "chain of UniProt P42680 (whole entry, looked up)": "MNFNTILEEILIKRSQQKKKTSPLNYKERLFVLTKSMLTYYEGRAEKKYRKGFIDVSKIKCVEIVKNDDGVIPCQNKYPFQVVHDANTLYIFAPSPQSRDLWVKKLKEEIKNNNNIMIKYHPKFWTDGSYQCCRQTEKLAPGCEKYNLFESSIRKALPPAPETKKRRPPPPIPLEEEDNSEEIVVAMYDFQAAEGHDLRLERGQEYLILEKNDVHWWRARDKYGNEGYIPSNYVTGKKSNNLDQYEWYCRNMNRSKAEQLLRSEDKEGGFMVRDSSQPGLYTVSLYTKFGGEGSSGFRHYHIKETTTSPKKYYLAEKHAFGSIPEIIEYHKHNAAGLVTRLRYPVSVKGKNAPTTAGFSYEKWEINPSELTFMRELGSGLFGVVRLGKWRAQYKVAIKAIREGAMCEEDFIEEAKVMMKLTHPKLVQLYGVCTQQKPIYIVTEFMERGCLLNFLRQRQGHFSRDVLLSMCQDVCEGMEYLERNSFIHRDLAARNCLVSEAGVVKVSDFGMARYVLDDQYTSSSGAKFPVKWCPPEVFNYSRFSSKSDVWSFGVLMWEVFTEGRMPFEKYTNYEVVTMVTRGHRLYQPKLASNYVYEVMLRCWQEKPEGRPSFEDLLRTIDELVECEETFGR", "chain of UniProt O43353 (whole entry, looked up)": "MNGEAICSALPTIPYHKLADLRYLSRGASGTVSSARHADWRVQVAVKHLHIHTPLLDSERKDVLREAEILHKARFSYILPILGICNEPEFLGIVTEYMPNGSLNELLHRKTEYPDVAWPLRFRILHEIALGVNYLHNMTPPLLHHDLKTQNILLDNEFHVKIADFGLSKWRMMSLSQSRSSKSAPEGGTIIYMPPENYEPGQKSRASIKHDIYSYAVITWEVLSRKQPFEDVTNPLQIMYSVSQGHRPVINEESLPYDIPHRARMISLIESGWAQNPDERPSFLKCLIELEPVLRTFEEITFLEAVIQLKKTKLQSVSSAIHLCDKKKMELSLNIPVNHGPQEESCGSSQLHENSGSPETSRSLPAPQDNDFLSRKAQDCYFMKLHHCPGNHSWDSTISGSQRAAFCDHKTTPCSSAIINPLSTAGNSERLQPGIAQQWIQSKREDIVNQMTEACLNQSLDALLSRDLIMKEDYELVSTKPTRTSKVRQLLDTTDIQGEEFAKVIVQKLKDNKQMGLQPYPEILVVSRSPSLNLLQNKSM", "chain of UniProt Q99755 (whole entry, looked up)": "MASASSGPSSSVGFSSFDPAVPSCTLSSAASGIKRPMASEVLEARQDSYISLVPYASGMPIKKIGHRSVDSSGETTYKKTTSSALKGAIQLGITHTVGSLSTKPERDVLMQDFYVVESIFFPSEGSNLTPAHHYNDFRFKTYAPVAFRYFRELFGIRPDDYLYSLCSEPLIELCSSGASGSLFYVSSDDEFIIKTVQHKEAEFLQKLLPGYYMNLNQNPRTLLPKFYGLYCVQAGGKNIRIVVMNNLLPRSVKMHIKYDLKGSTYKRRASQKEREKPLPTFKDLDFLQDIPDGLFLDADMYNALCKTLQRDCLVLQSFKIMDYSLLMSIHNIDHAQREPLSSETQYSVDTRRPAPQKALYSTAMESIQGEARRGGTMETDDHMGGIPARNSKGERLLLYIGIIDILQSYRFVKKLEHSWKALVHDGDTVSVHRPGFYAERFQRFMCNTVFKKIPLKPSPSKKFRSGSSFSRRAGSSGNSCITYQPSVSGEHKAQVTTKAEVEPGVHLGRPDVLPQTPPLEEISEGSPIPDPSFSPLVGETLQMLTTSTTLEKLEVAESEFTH", "chain of UniProt O95747 (whole entry, looked up)": "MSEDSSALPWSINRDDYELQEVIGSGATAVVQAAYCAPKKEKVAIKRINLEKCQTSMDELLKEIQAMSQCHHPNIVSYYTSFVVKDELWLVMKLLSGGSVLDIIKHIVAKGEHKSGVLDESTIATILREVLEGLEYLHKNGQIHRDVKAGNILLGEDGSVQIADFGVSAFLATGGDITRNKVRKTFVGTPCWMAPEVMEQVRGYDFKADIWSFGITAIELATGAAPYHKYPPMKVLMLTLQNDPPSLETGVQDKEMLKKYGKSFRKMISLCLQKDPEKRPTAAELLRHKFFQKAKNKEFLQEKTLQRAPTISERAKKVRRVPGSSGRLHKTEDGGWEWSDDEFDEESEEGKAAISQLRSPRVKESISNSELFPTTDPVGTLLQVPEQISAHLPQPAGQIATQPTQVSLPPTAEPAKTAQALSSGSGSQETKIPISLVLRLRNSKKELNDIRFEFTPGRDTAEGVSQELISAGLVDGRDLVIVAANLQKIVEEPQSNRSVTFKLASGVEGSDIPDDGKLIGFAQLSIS", "chain of UniProt Q13557 (whole entry, looked up)": "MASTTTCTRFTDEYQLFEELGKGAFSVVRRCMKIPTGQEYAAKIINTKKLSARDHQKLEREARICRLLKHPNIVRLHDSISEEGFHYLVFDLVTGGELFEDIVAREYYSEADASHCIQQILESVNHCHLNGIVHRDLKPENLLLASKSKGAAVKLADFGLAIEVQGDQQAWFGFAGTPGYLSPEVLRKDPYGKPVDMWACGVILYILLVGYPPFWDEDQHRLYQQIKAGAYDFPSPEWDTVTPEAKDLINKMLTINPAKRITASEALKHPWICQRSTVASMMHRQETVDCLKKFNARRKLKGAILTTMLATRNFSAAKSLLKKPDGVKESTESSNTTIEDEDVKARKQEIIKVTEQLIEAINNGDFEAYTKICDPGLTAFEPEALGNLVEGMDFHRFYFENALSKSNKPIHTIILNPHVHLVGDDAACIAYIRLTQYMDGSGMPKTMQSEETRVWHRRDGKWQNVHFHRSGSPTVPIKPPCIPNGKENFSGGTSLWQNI"}
{"data": "Series 1", "SMILES": "CC1=C(C#N)[C@@H](c2ccc3[nH]nc(C)c3c2)C(C#N)=C(c2ccc(Cl)cc2)N1", "method": "competition with immobilised ligand", "tested at": "1 µM"}
{"target": "Phosphatidylinositol 4,5-bisphosphate 3-kinase catalytic subunit beta isoform (PIK3CB, Homo sapiens, UniProt P42338)", "assay": "cell-free assay", "remaining binding": "100%"}
{"target": "Serine/threonine-protein kinase LATS1 (LATS1, Homo sapiens, UniProt O95835)", "assay": "cell-free assay", "remaining binding": "100%"}
{"target": "Protein-tyrosine kinase 6 (PTK6, Homo sapiens, UniProt Q13882)", "assay": "cell-free assay", "remaining binding": "100%"}
{"target": "Mitogen-activated protein kinase kinase kinase kinase 1 (MAP4K1, Homo sapiens, UniProt Q92918)", "assay": "cell-free assay", "remaining binding": "93.1%"}
{"target": "Phosphatidylinositol 4-phosphate 5-kinase type-1 alpha (PIP5K1A, Homo sapiens, UniProt Q99755)", "assay": "cell-free assay", "remaining binding": "100%"}
{"target": "Death-associated protein kinase 1 (DAPK1, Homo sapiens, UniProt P53355)", "assay": "cell-free assay", "remaining binding": "100%"}
{"target": "Cyclin-dependent kinase 7 (CDK7, Homo sapiens, UniProt P50613)", "assay": "cell-free assay", "remaining binding": "100%"}
{"target": "Receptor-interacting serine/threonine-protein kinase 2 (RIPK2, Homo sapiens, UniProt O43353)", "assay": "cell-free assay", "remaining binding": "92%"}
{"target": "Tyrosine-protein kinase SYK (SYK, Homo sapiens, UniProt P43405)", "assay": "cell-free assay", "remaining binding": "100%"}
{"target": "Ribosomal protein S6 kinase alpha-5, C-terminal kinase domain (RPS6KA5, Homo sapiens, UniProt O75582)", "assay": "cell-free assay", "remaining binding": "100%"}
{"target": "Tyrosine-protein kinase ABL1, non-phosphorylated (ABL1, Homo sapiens, UniProt P00519, T315I)", "assay": "cell-free assay", "remaining binding": "100%"}
{"target": "Casein kinase I isoform gamma-1 (CSNK1G1, Homo sapiens, UniProt Q9HCP0)", "assay": "cell-free assay", "remaining binding": "100%"}
{"target": "Serine/threonine-protein kinase Chk1 (CHEK1, Homo sapiens, UniProt O14757)", "assay": "cell-free assay", "remaining binding": "100%"}
{"target": "Focal adhesion kinase 1 (PTK2, Homo sapiens, UniProt Q05397)", "assay": "cell-free assay", "remaining binding": "100%"}
{"target": "Ankyrin repeat and protein kinase domain-containing protein 1 (ANKK1, Homo sapiens, UniProt Q8NFD2)", "assay": "cell-free assay", "remaining binding": "100%"}
{"target": "Death-associated protein kinase 2 (DAPK2, Homo sapiens, UniProt Q9UIK4)", "assay": "cell-free assay", "remaining binding": "100%"}
{"target": "Cyclin-dependent kinase-like 3 (CDKL3, Homo sapiens, UniProt Q8IVW4)", "assay": "binding", "remaining binding": "100%"}
{"target": "Tyrosine-protein kinase Tec (TEC, Homo sapiens, UniProt P42680)", "assay": "binding", "remaining binding": "100%"}
{"data": "Series 2", "target": "TAR DNA-binding protein 43, full length, His tag (TARDBP, Homo sapiens, UniProt Q13148, residues 1-414)", "method": "RNA Bind-n-Seq", "form": "RNA", "matrix": "in vitro", "tested at": "20 nM", "notes": "6-mer, flanks averaged, single round", "with": "150 mM KCl", "relative to": "input library", "direction": "higher = stronger binding"}
{"Sequence": "GAUAAU", "6-mer enrichment (R)": 0.687}
{"Sequence": "GGACCC", "6-mer enrichment (R)": 0.938}
{"Sequence": "AGAAAU", "6-mer enrichment (R)": 0.656}
{"Sequence": "AUGACU", "6-mer enrichment (R)": 0.631}
{"Sequence": "UGGCUC", "6-mer enrichment (R)": 0.75}
{"Sequence": "UAGAUU", "6-mer enrichment (R)": 0.575}
{"Sequence": "CAGAAA", "6-mer enrichment (R)": 0.681}
{"Sequence": "AGCCGG", "6-mer enrichment (R)": 1.45}
{"data": "Series 3", "SMILES": "O=C(c1cc2cc(O)ccc2[nH]1)c1cc2cc(O)ccc2[nH]1", "effect on": "enzyme activity", "mode": "inhibitor", "tested at": "0.5 µM", "relative to": "control"}
{"target": "TGF-beta receptor type-2 (TGFBR2, Homo sapiens, UniProt P37173)", "remaining activity [%]": 123}
{"target": "Inhibitor of nuclear factor kappa-B kinase subunit beta (IKBKB, Homo sapiens, UniProt O14920)", "remaining activity [%]": 91.3}
{"target": "Calcium/calmodulin-dependent protein kinase type II subunit delta (CAMK2D, Homo sapiens, UniProt Q13557)", "remaining activity [%]": 63.7}
{"target": "Serine/threonine-protein kinase 10 (STK10, Homo sapiens, UniProt O94804)", "remaining activity [%]": 70.3}
{"target": "Mitogen-activated protein kinase 9 (MAPK9, Homo sapiens, UniProt P45984)", "remaining activity [%]": 116}
{"target": "Protein kinase C alpha type (PRKCA, Homo sapiens, UniProt P17252)", "remaining activity [%]": 84.1}
{"target": "TGF-beta receptor type-1 (TGFBR1, Homo sapiens, UniProt P36897)", "remaining activity [%]": 93.4}
{"target": "Tyrosine-protein kinase Lyn, isoform B (LYN, Homo sapiens, UniProt P07948)", "remaining activity [%]": 62.7}
{"target": "Serine/threonine-protein kinase OSR1 (OXSR1, Homo sapiens, UniProt O95747)", "remaining activity [%]": 105}
{"target": "Mitogen-activated protein kinase kinase kinase 3 (MAP3K3, Homo sapiens, UniProt Q99759)", "remaining activity [%]": 96}
{"target": "cAMP-dependent protein kinase catalytic subunit alpha (PRKACA, Homo sapiens, UniProt P17612)", "remaining activity [%]": 107}
{"target": "cGMP-dependent protein kinase 1, isoform beta (PRKG1, Homo sapiens, UniProt Q13976)", "remaining activity [%]": 84.3}
{"target": "G protein-coupled receptor kinase 3 (GRK3, Homo sapiens, UniProt P35626)", "remaining activity [%]": 102}
{"target": "Serine/threonine-protein kinase Nek2 (NEK2, Homo sapiens, UniProt P51955)", "remaining activity [%]": 101}
{"target": "Cyclin-dependent kinase 5, with p25 (CDK5, Homo sapiens, UniProt Q00535)", "remaining activity [%]": 52.6}
{"target": "Inhibitor of nuclear factor kappa-B kinase subunit epsilon (IKBKE, Homo sapiens, UniProt Q14164)", "remaining activity [%]": 81.6}
{"target": "Death-associated protein kinase 2 (DAPK2, Homo sapiens, UniProt Q9UIK4)", "remaining activity [%]": 101}
{"target": "Serine/threonine-protein kinase STK11 (STK11, Homo sapiens, UniProt Q15831)", "remaining activity [%]": 101}
{"target": "Death-associated protein kinase 1 (DAPK1, Homo sapiens, UniProt P53355)", "remaining activity [%]": 101}
{"target": "STE20/SPS1-related proline-alanine-rich protein kinase (STK39, Homo sapiens, UniProt Q9UEW8)", "remaining activity [%]": 97.6}
{"target": "Calcium/calmodulin-dependent protein kinase kinase 2 (CAMKK2, Homo sapiens, UniProt Q96RR4)", "remaining activity [%]": 84.2}
{"target": "Protein kinase C beta type, isoform beta-I (PRKCB, Homo sapiens, UniProt P05771)", "remaining activity [%]": 90.4}
{"target": "Cyclin-dependent kinase 4, with cyclin D1 (CDK4, Homo sapiens, UniProt P11802)", "remaining activity [%]": 91.5}
{"target": "Serine/threonine-protein kinase Chk2 (CHEK2, Homo sapiens, UniProt O96017)", "remaining activity [%]": 80.1}
{"data": "Series 4", "target": "Histone acetyltransferase KAT6A, both winged helices, GST fusion (KAT6A, Homo sapiens, UniProt Q92794, residues 1-181)", "method": "protein binding microarray", "form": "double-stranded DNA, one strand shown", "matrix": "in vitro", "tested at": "not given", "notes": "8-mer, flanks averaged, mean of 2 arrays, mostly near background", "relative to": "not given", "direction": "higher = stronger binding", "Construct (chain)": "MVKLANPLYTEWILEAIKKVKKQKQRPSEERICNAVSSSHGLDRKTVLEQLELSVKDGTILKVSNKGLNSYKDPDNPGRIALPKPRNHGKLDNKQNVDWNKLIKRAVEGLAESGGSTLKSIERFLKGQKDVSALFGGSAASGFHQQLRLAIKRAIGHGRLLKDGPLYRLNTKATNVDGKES"}
{"Sequence": "AGATCTCG", "E-score": -0.0162}
{"Sequence": "GCGGCTAC", "E-score": 0.273}
{"Sequence": "CAATCCCA", "E-score": -0.223}
{"Sequence": "CGCAGTCA", "E-score": 0.111}
{"Sequence": "ATATACAG", "E-score": -0.143}
{"Sequence": "CTCGACAC", "E-score": 0.0402}
{"Sequence": "GTAACTAC", "E-score": -0.0284}
{"Sequence": "CAGTAACG", "E-score": 0.0691}
{"note": "Excerpt of the above (series 2):"}
{"Sequence": "GAUAAU", "6-mer enrichment (R)": 0.687}
{"Sequence": "GGACCC", "6-mer enrichment (R)": 0.938}
{"Sequence": "AGAAAU", "6-mer enrichment (R)": 0.656}
{"Sequence": "AUGACU", "6-mer enrichment (R)": 0.631}
{"Sequence": "UGGCUC", "6-mer enrichment (R)": 0.75}
{"Sequence": "UAGAUU", "6-mer enrichment (R)": 0.575}
{"Sequence": "CAGAAA", "6-mer enrichment (R)": 0.681}
{"Sequence": "AGCCGG", "6-mer enrichment (R)": 1.45}
